Published values collected from several papers.
Compare with care: the assays were run in different laboratories. ± marks the error that the study gave.

Compound	tested on	assay	system	conditions	scale	endpoint	value
CC(=O)N(C(=O)c1cc(C(F)(F)F)cc(C(F)(F)F)c1)c1ccccc1		chemical stability, HPLC-MS	borate buffered saline	pH 10.2, no N-acetyl-lysine		degradation rate constant	0.5 h⁻¹
CC(C)C[C@H](NC(=O)[C@H](N)C(C)C)C(=O)N[C@@H](CCCNC(=N)N)C(=O)N[C@@H](Cc1c[nH]c2ccccc12)C(=O)N[C@@H](CO)C(=O)N[C@@H](CCCNC(=N)N)C(=O)N[C@@H](CCCCN)C(=O)N[C@@H](CC(C)C)C(=O)N1CCC[C@H]1C(=O)N[C@@H](CS)C(=O)N[C@H](C(=O)N[C@@H](CO)C(N)=O)C(C)C		12G5 competition, SUP-T1 cells	human plasma	20 µM, 2 h, 37 °C		remaining activity	75 ± 8%
Cn1cc(-c2ccc(-c3cncc(Cl)c3N3CCC4(CCNC4=O)CC3)cc2)cn1	COLO 205	gene expression, microarray, measured: FOXM1 mRNA		concentration not given, 6 h	relative to: untreated cells	log2 fold change	-2.31
CN1C(=O)[C@@H](NC(=O)c2nnc(Cc3ccccc3)[nH]2)COc2cccnc21		phase I multiple ascending dose	human, male and female	oral, 200 mg, 14 days		participants with any serious TEAE	0%
CC(C)(C)n1ncc(OCc2ccc(COCCF)cc2)c(Cl)c1=O [fluorine-18 labelled]			human, myocardium	370 MBq		absorbed dose	18.5 to 22.2 mGy
CN(CCCN1CCN(C(=O)CN2CCN(CC(=O)[O-])CCN(CC(=O)[O-])CCN(CC(=O)[O-])CC2)CC1)c1ccc2nccc(C(=O)NCC(=O)N3CC(F)(F)C[C@H]3C#N)c2c1.[68Ga+3]			mice, HT-1080.hFAP and HT-1080 wild-type xenografts, liver	iv, 500 pmol, 1 h post injection		uptake	0.4 ± 0.1 %IA/g
C=CC(=O)NC1CCN(c2ncc3ncnc(Nc4ccc(Oc5ccc6c(c5)ncn6C)c(C)c4)c3n2)CC1			human, male, plasma	oral, 30 mg single dose, fasted, geometric mean		AUC(0-tz)	5.68 µM·h
CCCn1cc(C)c2c(=O)[nH]c(-c3cc(S(=O)(=O)N4CCN(CC)CC4)ccc3OCC)nc21			human	concentration not given		TEAE of CTCAE grade ≥3	0%
CN1CCN(c2cccc3c2CCN(C(=O)/C=C/c2c(-n4cnnn4)ccc(Cl)c2F)[C@@H]3C(=O)Nc2ccc(C(=O)O)cc2)C(=O)C1			healthy human subjects	intravenous infusion, 4 mg/h, 2 h		subjects with serious adverse event	0%
O=C(CCCN1CCCN(c2ccc(Cl)cc2)CC1)c1ccc(F)cc1		catalepsy, bar test	Sprague-Dawley rat	intraperitoneal, dose not given, 60 min		time on bar	< 20 s
Cl.N=C(CC(O)c1cc2c(F)cc(F)cc2c2cc(C(F)(F)F)ccc12)Nc1ccc(F)c(F)c1 (centres unmarked)			human plasma	2.5 ng/mL, 24 h, 37 °C		degradation	27.5%
O=C(/C=C/CCc1ccc(O)cc1)/C=C/c1ccc(O)cc1			nude mouse MCF7 xenograft	20 mg/kg, day 9		body weight	20.6 ± 1.07 g
CNCc1ccc(-c2[nH]c3cc(F)cc4c3c2CCNC4=O)cc1			human patients	oral, 360 mg twice daily, all grades		dysgeusia incidence	25%
O=C1NCCc2nc(OCc3cccc(F)c3)ccc21		measured: loss of Placing	Sprague-Dawley rat male	oral, 100 mg/kg, 1 h	direction not given	Irwin test score	0
COc1ccnc(C(N)=O)c1O		soil adsorption	soil	pH 6.9, organic carbon 0.8 %		KFoc	1780 mL/g
COCCC(=O)Nc1ccc(C2CCCCC2)cc1		liver microsome stability	cynomolgus liver microsomes	1 µM		hepatic clearance	32 mL/min/kg
NCc1ccc(-c2nn(Cc3ccncc3)c3ccccc23)o1			male CD1 mouse, plasma	intravenous, 5 mg/kg		clearance	78.9 mL/min/kg
COc1ccc2[nH]c([S+]([O-])Cc3ncc(C)c(OC)c3C)nc2c1 (centres unmarked)			healthy Chinese volunteers CYP2C19 NM, plasma	oral, 20 mg single dose, enteric-coated capsules		AUC(0-t)	469 ± 530 ng·h/mL
CCc1cc(C(=O)NC)c2nccc(N3CCc4c(cc(Cn5ccnc5)cc4-c4cn(C)nc4C(F)(F)F)C3=O)c2c1		measured: HDW	Sprague Dawley rat	oral, 50 mg/kg once daily, 7 days	relative to: vehicle	change in clinical chemistry or haematology parameter	7.43%
COc1cccc(-c2n[nH]c(SCc3ccccn3)n2)c1OC			Sprague-Dawley rats, both sexes	oral dietary, 10 mg/kg/day, day 7, 0 h		plasma concentration	25.1 ng/mL

Compound	tested on	assay	system	conditions	scale	endpoint	value
Cc1cc(/C=C/C#N)cc(C)c1Nc1ccnc(Nc2ccc(C#N)cc2)n1			aqueous buffers and water	24 h, independent of pH		saturation solubility	< 1.5 µg/mL
C=CC(=O)NC1CCN(c2ncc3ncnc(Nc4ccc(Oc5ccc6c(c5)ncn6C)c(C)c4)c3n2)CC1		measured: total radioactivity	healthy male volunteers, plasma	oral solution, 60 mg, together with: [14C]-labelled compound		AUC0–inf	30.5 µM·h
CN(C(=O)n1cnc(-c2ccc[n+]([O-])c2)c1)[C@H]1CC[C@H](O)CC1			rat, cerebellum	oral, 10 mg/kg daily for 5 days, 72 h		tissue concentration	6.9 ± 3.4 ng/g
O=C(COc1ccc(Cl)cc1)NC12CC(c3nnc([C@H]4C[C@@H](OC(F)(F)F)C4)o3)(C1)C2		measured: post lumbar puncture syndrome	human	100 mg once daily, 28 (unit not given)		adverse event incidence	10%
CC(C)(C)c1ccc(O)c(CN(Cc2cc(C(C)(C)C)ccc2O)C2CCC(NC(N)=O)CC2)c1 (centres unmarked)			human liver microsomes	5 ng/mL, 24 h, 25 °C, short-term storage		recovery	93.8 ± 3.81%
C[C@H]1CNCCN1c1nccc(-c2noc3c2CCC[C@@]32CCCc3sc(N)c(C#N)c32)n1			mouse	po, 50 mg/kg		AUC(0-last)	42.3 µM·h
CCC(=O)N(CCC(c1ccc2c(c1)OCO2)c1ccccc1OC)Cc1ccccc1 (centres unmarked)			female athymic nude mouse, blood	i.p., 60 mg/kg twice daily, 14 days, group mean		RDW-CV	24.5%
CCN1/C(=C/C(C)=O)Sc2ccc(F)cc21			cynomolgus monkey	oral, 10 mg/kg, 1 h post-dose		PR interval	91 ± 3 ms
CCO[C@H]1CCN(Cc2c(OC)cc(C)c3[nH]ccc23)[C@H](c2ccc(C(=O)O)cc2)C1			PNH patients, active haemolysis	oral, 200 mg, treatment		incidence alkaline phosphatase increase	0%
CCO			healthy Chinese men	0.5 g/kg, supine or semi-supine, together with: placebo	relative to: baseline	maximal decrease in systolic BP	-11.7 ± 8.52 mmHg
COCCC(=O)Nc1ccc([C@H]2[C@@H](F)[C@@H](F)C[C@@H](F)[C@H]2F)cc1		hepatocyte stability	cryopreserved mouse hepatocytes	1 µM		hepatic clearance	64 mL/min/kg
Nc1ccn([C@@H]2O[C@H](CO)[C@@H](O)C2(F)F)c(=O)n1		HPLC-UV	human, plasma	800 mg/m^2, mean, before paricalcitol		volume of distribution	334 L/m²
Cc1cc(Nc2ccc(S(F)(F)(F)(F)F)cc2)n2nc(C(C)(F)F)nc2n1			CD-1 mouse, female, whole blood	oral, 300 mg/kg daily, 24 h after dose 10, spray-dried dispersion		blood concentration	140 ± 101 µM
CCOc1c([C@H](C)n2nc(C)c3c(N)ncnc32)cc(Cl)c(F)c1[C@@H]1CNC(=O)C1			human B-cell malignancy patients	oral, all doses, baseline QTcF ≤450 ms		observations with ΔQTcF >30 to ≤60 ms	2.5%
O=C(Cc1cccnc1)Nc1ccc(C2CCCCC2)cc1			mouse liver microsomes	1 µM		hepatic clearance	82 mL/min/kg
Cl.[2H]C([2H])([2H])CC(=O)c1cnc(NC(=O)C2CC2)cc1Nc1cccc(-c2ncn(C([2H])([2H])[2H])n2)c1OC		geometric mean	human	oral, 100 mg single dose, fasted, liquid		AUC(0-inf)	11300 ng·h/mL
c1ncc(-c2ccc(C3CCCCC3)cc2)cn1		liver microsome stability	mouse liver microsomes	1 µM		hepatic clearance	78 mL/min/kg
CN(C)CCCNC(=O)/C(=C/CCCCC(=O)NO)COc1cccc2ccccc12			human patients	intravenous, 250 mg/m2, day 1, single dose, mean		volume of distribution at steady state	46.4 L
CC(C)C[C@H](N)C(=O)N[C@@H](Cc1c[nH]c2ccccc12)C(=O)N[C@@H](Cc1c[nH]c2ccccc12)C(=O)N[C@@H](CCCNC(=N)N)C(=O)N[C@@H](Cc1c[nH]c2ccccc12)C(=O)N[C@@H](Cc1c[nH]c2ccccc12)C(=O)N[C@@H](CCCNC(=N)N)C(=O)N[C@@H](Cc1c[nH]c2ccccc12)C(=O)N[C@@H](CCCNC(=N)N)C(=O)O		circular dichroism	30 mM SDS			beta-sheet content	22%
COc1ccnc(C(=O)NCC(=O)O)c1O		soil adsorption	soil	pH 6.9, organic carbon 0.8 %		KFoc	885 mL/g

Compound	tested on	assay	system	conditions	scale	endpoint	value
O=C(c1ccc([C@H]2[C@@H](F)[C@@H](F)C[C@@H](F)[C@H]2F)cc1)N1CC(O)C1		hepatocyte stability	cryopreserved mouse hepatocytes	1 µM		hepatic clearance	21 mL/min/kg
CC(C)(C(=O)N1CCOc2c(C#N)cncc2C1)C(F)F		measured: musculoskeletal disorders	healthy humans, both sexes	oral, 10 mg single dose		share of subjects with TEAE	0%
Cn1ncnc1[C@H]1c2n[nH]c(=O)c3cc(F)cc(c23)N[C@@H]1c1ccc(F)cc1			human patients, plasma	oral, 600 µg/m2 twice daily, day 1, monotherapy, dose level DL3, median		AUC(0-8h)	12.3 ng·h/mL
Cc1cc(NC2CCN(C(=O)OC3CCN(C(=O)/C=C/CN(C)C)C3)CC2)n2ncc(C(C)C)c2n1 (centres unmarked)		CTCAE v4.0, measured: Dizziness	patients with advanced solid tumours	oral, dose not given, all schedules, grade 3 or higher		patients with TEAE	0%
O=C(Nc1ccc(Cl)cc1)Nc1ccc(Cl)c(Cl)c1			whole cow milk	20 nM nominal		dose fraction in milk fat	85.7%
Cc1cc(C)c(CNC(=O)c2cc(Cl)c3c(c2C)O[C@@](C)([C@H]2CC[C@H](N(C)C)CC2)O3)c(=O)[nH]1			human relapsed/refractory NHL	oral, 200 mg once daily, onset after cycle 1 day 1		adenovirus infection grade ≥3	4.2%
CC(C)C[C@H](NC(=O)C[C@H](O)[C@H](CC(C)C)NC(=O)[C@H](Cc1c[nH]cn1)NC(=O)CNC(=O)[C@@H](NC(=O)[C@H](C)NC(=O)[C@H](Cc1c[nH]c2ccccc12)NC(=O)[C@H](CCC(N)=O)NC(=O)[C@@H](Cc1ccccc1)NC(=O)COCCOCCNC(=O)CCC(C(=O)O)N1CCN(CC(=O)O)CCN(CC(=O)O)CCN(CC(=O)O)CC1)C(C)C)C(N)=O (some centres unmarked) [lutetium-177 labelled]			female BALB/c nu/nu mice, liver	intravenous, 50 pmol, 1 h		tissue uptake	0.97 ± 0.19 %ID/g
CCCCCNC(=O)N1CCC(CN(Cc2ccc(Cl)cc2)Cc2ccc([N+](=O)[O-])s2)C1 (centres unmarked)		measured: MO%	C57BL/6 mouse, blood	100 mg/kg twice daily, 7 days		blood cell fraction	4.9 ± 0.7%
NC1(C(=O)N[C@@H](CCO)c2ccc(Cl)cc2)CCN(c2nc[nH]c3nccc2-3)CC1			metastatic CRPC patients	dose not given, grade 3 to 4, treatment-related, all doses, together with: enzalutamide 160 mg daily		incidence of Anaemia	0%
C=CC(=O)Nc1cc(Nc2nccc(-c3cn(C4CC4)c4ccccc34)n2)c(OC)cc1N(C)CCN(C)C		autosampler stability	rat plasma	1 ng/mL, 4 h, 10 °C	relative to: nominal concentration	relative error	-7.7%
N#Cc1ccc2c(c1)[C@H]1CCCN(C(=O)c3ccc4[nH]cnc4c3)[C@H]1C2			human	80 mg, day 15	relative to: baseline	cortisol level change	-62 nmol/L
COc1cc(Nc2ncc3c(n2)-c2ccc(Cl)cc2C(c2c(F)cccc2OC)=NC3)ccc1C(=O)O		measured: Hypoxia, all grades	cancer patients, phase 1/2	oral, dose not given, together with: pembrolizumab		patients with adverse event	4%
N#CCNC(=O)c1ccc(-c2ccnc(Nc3ccc(N4CCOCC4)cc3)n2)cc1			healthy human volunteers, plasma	oral, dose not given, together with: single-dose rifampin	relative to: compound alone	AUCinf ratio	157%
N#CCC(=O)Nc1ccc(C2CCCCC2)cc1		liver microsome stability	dog liver microsomes	1 µM		hepatic clearance	29 mL/min/kg
Nc1ccccc1C(=O)C[C@@H](N)C(=O)O		ultrafiltration	normal rat serum	37 °C		serum protein binding	91 ± 10%
O=C(NCCN1CCCC1=O)c1ccc(C2CCCCC2)cc1		liver microsome stability	human liver microsomes	1 µM, without NADPH		hepatic clearance	3.9 mL/min/kg
CCn1ncc2c1-c1cnc(N)c(c1)O[C@H](C)c1cc(F)ccc1-c1nn(C)nc1C2			female Balb/c nude mouse	3 mg/kg twice daily, 6 h (tau/2), steady state		unbound plasma concentration	0.067 ± 0.008 µM
CC(C(=O)Nc1ccc([C@H]2[C@@H](F)[C@@H](F)C[C@@H](F)[C@H]2F)cc1)n1cncn1 (some centres unmarked)			cynomolgus liver microsomes	1 µM		hepatic clearance	4.9 mL/min/kg
O=C(Nc1nc2cccc(-c3ccc(CN4CCS(=O)(=O)CC4)cc3)n2n1)C1CC1		measured: investigations	human rheumatoid arthritis patients	oral, 200 mg once daily, 4 weeks, regardless of relatedness		treatment-emergent adverse events	0%

For quick reference, copied from above:
Compound	tested on	assay	system	conditions	scale	endpoint	value
Cl.[2H]C([2H])([2H])CC(=O)c1cnc(NC(=O)C2CC2)cc1Nc1cccc(-c2ncn(C([2H])([2H])[2H])n2)c1OC		geometric mean	human	oral, 100 mg single dose, fasted, liquid		AUC(0-inf)	11300 ng·h/mL
c1ncc(-c2ccc(C3CCCCC3)cc2)cn1		liver microsome stability	mouse liver microsomes	1 µM		hepatic clearance	78 mL/min/kg
CN(C)CCCNC(=O)/C(=C/CCCCC(=O)NO)COc1cccc2ccccc12			human patients	intravenous, 250 mg/m2, day 1, single dose, mean		volume of distribution at steady state	46.4 L
CC(C)C[C@H](N)C(=O)N[C@@H](Cc1c[nH]c2ccccc12)C(=O)N[C@@H](Cc1c[nH]c2ccccc12)C(=O)N[C@@H](CCCNC(=N)N)C(=O)N[C@@H](Cc1c[nH]c2ccccc12)C(=O)N[C@@H](Cc1c[nH]c2ccccc12)C(=O)N[C@@H](CCCNC(=N)N)C(=O)N[C@@H](Cc1c[nH]c2ccccc12)C(=O)N[C@@H](CCCNC(=N)N)C(=O)O		circular dichroism	30 mM SDS			beta-sheet content	22%
COc1ccnc(C(=O)NCC(=O)O)c1O		soil adsorption	soil	pH 6.9, organic carbon 0.8 %		KFoc	885 mL/g
O=C(c1ccc([C@H]2[C@@H](F)[C@@H](F)C[C@@H](F)[C@H]2F)cc1)N1CC(O)C1		hepatocyte stability	cryopreserved mouse hepatocytes	1 µM		hepatic clearance	21 mL/min/kg
CC(C)(C(=O)N1CCOc2c(C#N)cncc2C1)C(F)F		measured: musculoskeletal disorders	healthy humans, both sexes	oral, 10 mg single dose		share of subjects with TEAE	0%
Cn1ncnc1[C@H]1c2n[nH]c(=O)c3cc(F)cc(c23)N[C@@H]1c1ccc(F)cc1			human patients, plasma	oral, 600 µg/m2 twice daily, day 1, monotherapy, dose level DL3, median		AUC(0-8h)	12.3 ng·h/mL
